Results gathered from unrelated publications.
Protocols differ between the studies behind these lines. “And” joins repeats or separate records; there may be more than shown. ± marks the error that the study gave.
ADRA2C: Alpha-2C adrenergic receptor (ADRA2C, Homo sapiens, UniProt P18825)
UCHL1: Ubiquitin carboxyl-terminal hydrolase isozyme L1 (UCHL1, Homo sapiens, UniProt P09936)
Voltage-dependent P/Q-type calcium channel subunit alpha-1A: Voltage-dependent P/Q-type calcium channel subunit alpha-1A (Homo sapiens, UniProt O00555)
T1: ssDNA, aptamer; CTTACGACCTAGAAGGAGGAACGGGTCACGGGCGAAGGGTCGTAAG
T2: G-quadruplex DNA (Homo sapiens); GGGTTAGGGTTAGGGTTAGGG

Structure (SMILES)	tested on	test	test system	conditions	scale	quantity	result
CCN1CCC[C@H]1CNC(=O)c1c(O)c(Cl)cc(Cl)c1OC	Probable G-protein coupled receptor 85 (GPR85, Homo sapiens, UniProt P60893)	β-arrestin recruitment, TANGO luminescence, refers to: GPR85	–	concentration not given	baseline: basal luminescence	log2 fold change	-0.037
Nc1ncnc2c1ncn2[C@@H]1O[C@H](COP(=O)(O)OP(=O)(O)OP(=O)(O)O)[C@@H](O)[C@H]1O	T1, ssDNA, aptamer	ITC	–	–	–	Kd	0.71 µM
Cc1ccc(N2CCN(Cc3cccnc3Oc3ccc(-c4c(C)c(=O)[nH]c(=O)n4C)c(C)c3)CC2)cc1C	ADRA2C	binding, radioligand binding	–	added: [3H]rauwolscine	baseline: Ki alpha2A over Ki alpha2C	selectivity ratio	5
Cc1ccc(C(=O)c2c(NC(=O)c3ccncc3)sc3c2CCCC3)cc1	Trypanosoma cruzi	reporter translation, Renilla luciferase mRNA translation	cell-free extract	40 µM	baseline: DMSO	inhibition	-8.9%
O=c1nc(SCc2cc(F)cc(C(F)(F)F)c2)nc(SCc2ccc3nc(Cl)ccc3c2)[nH]1	TOP2A (Homo sapiens, UniProt P11388)	decatenation	–	125 µM, replicate 1	–	decatenated DNA	0%
O=C(CCl)N(Cc1ccccc1)Cc1cc2n(n1)CCCC2	UCHL1	covalent, intact protein LC-MS	–	12.5 µM	–	labelling	19.3%
O=C(C1=C(O)C(=O)N(c2ccc(O)cc2)C1c1ccc([N+](=O)[O-])cc1)c1ccccc1 (centres unmarked)	ESR1/YWHAZ, with 14-3-3 zeta (Homo sapiens, UniProt P03372+P63104)	14-3-3ζ/ERα peptide binding, stabiliser, fluorescence polarization	–	–	–	EC1.2	87 µM
c1cc(-c2nc(N3CCNCC3)c3ccccc3n2)nc(-c2nc(N3CCNCC3)c3ccccc3n2)c1	T2, G-quadruplex DNA (Homo sapiens)	FRET melting	–	1 µM, pH 7.2, KCl 10 mM	–	ΔTm	> 15 °C
N#Cc1c(N=Cc2cc([N+](=O)[O-])c(Cl)cc2Cl)sc2c1CCCC2	UCHL1	covalent, intact protein LC-MS	–	12.5 µM	–	labelling	3.39%
CNCCC(Oc1ccc(C(F)(F)F)cc1)c1ccccc1.Cl (centres unmarked)	Voltage-dependent P/Q-type calcium channel subunit alpha-1A	ion current, antagonist, automated patch clamp	–	–	–	IC30	5.33 µM
COc1cc(F)c(NS(=O)(=O)c2cc(Cl)ccc2O)cc1OC	malate dehydrogenase	enzyme activity, inhibitor	–	200 µM, pH 7.0, 1% DMSO, aggregation counter-screen	–	remaining activity	97%
CCN1CCN(c2cc(N3CCN(CC)CC3)nc(NCCNc3ccnc4cc(Cl)ccc34)n2)CC1	Nuclear receptor subfamily 1 group I member 3 (Homo sapiens, UniProt Q14994)	reporter gene, Gal4 hybrid reporter	–	20 µM	baseline: vehicle	activation	1.5 fold
CCCOc1ccc(NS(=O)(=O)c2cc(Cl)cc(Cl)c2O)cc1F	malate dehydrogenase	enzyme activity, inhibitor	–	200 µM, pH 7.0, 1% DMSO, aggregation counter-screen	–	remaining activity	148%
CO[C@@H]1O[C@@H](C)[C@@H](O)[C@@H](O)[C@@H]1O	fleA (Aspergillus fumigatus, UniProt Q4WW81)	ITC	–	–	–	-ΔH	7.84 kcal/mol
O=C(NC1CCC1)c1ccc2nc(-c3cccc(NS(=O)(=O)NCCN4CCCCC4)c3)cn2c1	PIK3CA (Homo sapiens, UniProt P42336, C420R)	enzyme activity	–	10 µM	–	remaining activity	100%
CC(C)NC(=O)C(C#N)=Cc1ccc2ccccc2c1	UCHL1	covalent, intact protein LC-MS	–	12.5 µM	–	labelling	8.47%
CCC(=O)NC[C@@H]1C[C@H]1c1cccc2c1CCO2	Voltage-dependent P/Q-type calcium channel subunit alpha-1A	ion current, antagonist	HEK293	10 µM	–	inhibition	7%
C#CCCC1(CC[C@H](NC(=O)NCCCCCCNC(=O)NCCNC(=O)COc2cccc([C@@H](CCc3ccc(OC)c(OC)c3)OC(=O)[C@@H]3CCCCN3C(=O)C(=O)C(C)(C)CC)c2)C(N)=O)N=N1.O=C(O)C(F)(F)F	FKBP1A (Homo sapiens, UniProt P62942)	photoaffinity labeling, in-gel fluorescence, refers to: Alexa Fluor 647 click label	–	2 µM, UV irradiation 365 nm	higher = more labeling	probe labeling fluorescence	39400 a.u.
N#Cc1nc2ccccc2s1	UCHL1	covalent, intact protein LC-MS	–	12.5 µM	–	labelling	15.8%
N[C@@H](CCC(=O)O)C(=O)O	glc-2 (Caenorhabditis elegans, UniProt Q17328)	two-electrode voltage clamp	Xenopus laevis oocytes	–	–	mean current	8.7 µA
Nc1ncnc2c1ncn2[C@@H]1O[C@H](CSCC[C@H](N)C(=O)O)[C@@H](O)[C@H]1O	O-methyltransferase (Sorghum bicolor, UniProt A0A1B6PFV1)	–	–	concentration not given, added: RSV+	–	ΔH of binding	-4.07 ± 0.137 kcal/mol
Cc1ccccc1C1CC(=O)c2c(C)nc(N)nc2C1 (centres unmarked)	Leucine-rich repeat serine/threonine-protein kinase 2, WD40 domain (LRRK2, Homo sapiens, UniProt Q5S007)	binding, affinity selection mass spectrometry	–	–	baseline: other proteins in batch	fold enrichment	1.82

Structure (SMILES)	tested on	test	test system	conditions	scale	quantity	result
C#CC(=O)N1CCC(N2CCN(Cc3cccc(C)c3)C2=O)C1 (centres unmarked)	UCHL1	covalent, intact protein LC-MS	–	12.5 µM	–	labelling	20.7%
O=C(CCc1nncn1-c1ccccc1)NCc1nocc1C(=O)O	malate dehydrogenase	enzyme activity, inhibitor	–	200 µM, pH 7.0, 1% DMSO, aggregation counter-screen	–	remaining activity	95%
CC12CC3CC(C)(C1)CC(N)(C3)C2	Voltage-dependent P/Q-type calcium channel subunit alpha-1A	ion current, antagonist	HEK293	3 µM	–	inhibition	34%
COc1ccc(S(=O)(=O)n2nc(SCc3ccc(Cl)cc3)nc2N)cc1	Lysophospholipase-like protein 1 (Mus musculus, UniProt Q3UFF7)	enzyme activity, activator, gel-based ABPP	purified protein	concentration not given, added: FP-rhodamine	baseline: DMSO	probe labeling increase	2.4 fold
c1coc(-c2n[nH]cc2-c2ccnc3ccccc23)c1	Serine/threonine-protein kinase HSL1 (HSL1, Candida albicans, UniProt Q5AG71)	kinase binding, MIB/MS competition	Candida albicans lysate	10 µM	baseline: DMSO, negative = stronger binding	log2 fold change	-0.03
CS(=O)(=O)c1nc2ccc(NS(=O)(=O)c3ccc(C#N)cc3)cc2s1	UCHL1	covalent, intact protein LC-MS	–	12.5 µM	–	labelling	9.42%
C=C1C(=O)O[C@@H]2C[C@@]3(C)CCCC(=C)[C@@H]3C[C@H]12	HNF4A (Homo sapiens, UniProt P41235)	reporter gene, Gal4 hybrid reporter	–	10 µM	baseline: vehicle	activation	0.48 fold
Cc1cc(Oc2ncccc2CN2CCN(Cc3ccccc3Cl)CC2)ccc1-c1c(C)c(=O)[nH]c(=O)n1C	ADRA2C	binding, radioligand binding	–	added: [3H]rauwolscine	baseline: Ki alpha2A over Ki alpha2C	selectivity ratio	3
COc1cc(Nc2ncc3c(n2)-c2ccc(Cl)cc2C(c2c(F)cccc2OC)=NC3)ccc1C(=O)O	NTRK3	kinase activity	–	1 µM	–	remaining activity	9%
C=CC(=O)Nc1cccc(Oc2nc(Nc3ccc(N4CCN(C)CC4)cc3)nc3ccoc23)c1	Tyrosine-protein kinase BTK, activated (BTK, Homo sapiens, UniProt Q06187)	covalent inhibitor	–	–	–	kinact	0.00806 s⁻¹
C[C@@H](c1ccc(-n2cnc3c(N)ncnc32)cc1)N1CCc2nn(C)c(Cc3ccccc3)c2C1=O	MET (Homo sapiens, UniProt P08581, Y1235D)	KINOMEscan	–	0.1 µM	baseline: DMSO control	remaining binding	79%
Nc1ncnc2c1ncn2[C@@H]1O[C@H](COP(=O)(O)CP(=O)(O)OP(=O)(O)O)[C@@H](O)[C@H]1O	P2X purinoceptor 1 (P2RX1, Homo sapiens, UniProt P51575, S286A)	saturation binding	HEK293	25 nM	–	specific binding	2560 CCPM and 6270 CCPM and 1820 CCPM
C[C@H](CCC(C)(C)O)[C@H]1CC[C@H]2[C@@H]3CC=C4C[C@@](C)(O)CC[C@]4(C)[C@H]3CC[C@]12C	Glutamate NMDA receptor; GRIN1/GRIN2B (GRIN1/GRIN2B, Homo sapiens, UniProt Q05586+Q13224, S553A)	positive allosteric modulator, two-electrode voltage clamp	Xenopus oocytes expressing GluN1-S553A	10 µM, 0.02% cremophor, added: 100 µM glutamate and glycine	baseline: without compound	current response	90 ± 5.7%
CCCCC[C@H](O)/C=C/[C@H]1CCC(=O)[C@@H]1C/C=C\CCCC(=O)O	PTGER1 (Homo sapiens, UniProt P34995, S42A)	IP1 accumulation, agonist	AD293	mutant S42A	baseline: wild type	span	113 ± 3.38%
O=C(O)C1=CCNCC1	BEST1 (Homo sapiens, UniProt O76090)	whole-cell patch clamp	HEK293 transiently expressing channel	concentration not given, membrane potential 0 mV	–	current density	-0.03 pA/pF and -0.02 pA/pF and -0.13 pA/pF and -0.04 pA/pF and 0 pA/pF and 0.02 pA/pF
C=CC(=O)N1CCC(COCC(=O)N2CCN(c3nc(-c4cnc(N)nc4C(F)F)nc(N4CCOC[C@@H]4C)n3)CC2)CC1	PTK2B (Homo sapiens, UniProt Q14289)	KINOMEscan	–	1 µM	–	remaining binding	95%
O=C(N/N=C/c1ccc(-c2ccccc2Cl)o1)c1ccccc1	Trypanosoma cruzi	reporter translation, Renilla luciferase mRNA translation	cell-free extract	40 µM	baseline: DMSO	inhibition	-1.4%
COc1ccc(C=C(C#N)C(=O)Nc2ccccc2C)cc1O	UCHL1	covalent, intact protein LC-MS	–	12.5 µM	–	labelling	10.8%
O=C(O)[C@@H](CNC(=O)[C@@H]1C[C@@H]2CC[C@H]1C21CC1)Oc1ccccc1	malate dehydrogenase	enzyme activity, inhibitor	–	200 µM, pH 7.0, 1% DMSO, aggregation counter-screen	–	remaining activity	93%
Nc1ncnc2c1ncn2[C@@H]1O[C@H](COP(=O)(O)OP(=O)(O)O)[C@@H](O)[C@H]1O	GUK1 (Homo sapiens, UniProt Q16774)	binding, isothermal titration calorimetry	–	molar ratio 2.17, fitted curve	–	ΔH	-0.328 kcal/mol
CC(=C/C(=O)O)/C=C/C=C(\C)C1C=C2C(C)(C)CCCC2(C)O1 (centres unmarked)	Rhodopsin (RHO, Homo sapiens, UniProt P08100, P23H)	ER retention, immunostaining co-localization, refers to: opsin with calnexin	COS-7 transfected P23H	1.00 µM	–	Pearson correlation coefficient	0.74
O=C(O)C1CCCNC1 (centres unmarked)	SLC6A6 (Homo sapiens, UniProt P31641, G62A)	binding, microscale thermophoresis	–	61 nM, room temperature, added: 50 nM labelled protein	higher = more binding	normalised MST signal	-0.0708

Some of these lines once more:
Structure (SMILES)	tested on	test	test system	conditions	scale	quantity	result
COc1cc(Nc2ncc3c(n2)-c2ccc(Cl)cc2C(c2c(F)cccc2OC)=NC3)ccc1C(=O)O	NTRK3	kinase activity	–	1 µM	–	remaining activity	9%
O=C(NC1CCC1)c1ccc2nc(-c3cccc(NS(=O)(=O)NCCN4CCCCC4)c3)cn2c1	PIK3CA (Homo sapiens, UniProt P42336, C420R)	enzyme activity	–	10 µM	–	remaining activity	100%
COc1cc(F)c(NS(=O)(=O)c2cc(Cl)ccc2O)cc1OC	malate dehydrogenase	enzyme activity, inhibitor	–	200 µM, pH 7.0, 1% DMSO, aggregation counter-screen	–	remaining activity	97%
Nc1ncnc2c1ncn2[C@@H]1O[C@H](CSCC[C@H](N)C(=O)O)[C@@H](O)[C@H]1O	O-methyltransferase (Sorghum bicolor, UniProt A0A1B6PFV1)	–	–	concentration not given, added: RSV+	–	ΔH of binding	-4.07 ± 0.137 kcal/mol
C=C1C(=O)O[C@@H]2C[C@@]3(C)CCCC(=C)[C@@H]3C[C@H]12	HNF4A (Homo sapiens, UniProt P41235)	reporter gene, Gal4 hybrid reporter	–	10 µM	baseline: vehicle	activation	0.48 fold
O=c1nc(SCc2cc(F)cc(C(F)(F)F)c2)nc(SCc2ccc3nc(Cl)ccc3c2)[nH]1	TOP2A (Homo sapiens, UniProt P11388)	decatenation	–	125 µM, replicate 1	–	decatenated DNA	0%
N#Cc1c(N=Cc2cc([N+](=O)[O-])c(Cl)cc2Cl)sc2c1CCCC2	UCHL1	covalent, intact protein LC-MS	–	12.5 µM	–	labelling	3.39%
